Published values of several laboratories.
Protocols differ between the studies behind these lines. Converted amounts (≈) assume the structure as drawn.
Organism: Escherichia coli

`O=[N+]([O-])c1cc2c(ccc3c2ccc2cc([N+](=O)[O-])oc23)o1` gave an MIC90 of > 32 µg/mL (REMA).
For `CC(=O)c1ccc(C(=O)O)cc1`, “SOS response induction” read 14% (MG1655 RecA-GFP; 100 µM, 4 h).
`CC(C)C[C@H](NC(=O)[C@H](CCN)NC(=O)[C@H](CCN)NC(=O)[C@@H](Cc1ccccc1)NC(=O)[C@H](CC(C)C)NC(=O)[C@H](CCN)NC(=O)[C@H](CCN)NC(=O)[C@H](N)CCN)C(N)=O` gave an MBC of 128 µM (≈ 114 µg/mL) (ATCC 10546; 24 h, 37 °C).
For `Cn1c(=O)ccc2ccc(F)c(CCNC[C@H]3CN(c4cnc5c(n4)NC(=O)CO5)C(=O)O3)c21`, the MIC90 was 0.5 µg/mL (≈ 1.07 µM).
With `CC(C)[C@@H]1NC(=O)CNC(=O)[C@H](CC(N)=O)NC(=O)[C@H](CCCNC(=N)N)NC(=O)[C@H](Cc2ccc(O)cc2)NC(=O)[C@H](C(C)C)NC(=O)[C@@H](NC(=O)[C@@H](NC(=O)[C@H](CC(N)=O)NC(=O)[C@H](Cc2c[nH]c3ccccc23)NC(=O)[C@H](C)NC(=O)[C@H](Cc2ccccc2)NC(=O)CN)C(C)C)CSSC[C@@H](C(=O)N[C@@H](Cc2c[nH]cn2)C(=O)N[C@@H](CCCNC(=N)N)C(=O)N[C@@H](CCCNC(=N)N)C(=O)N[C@@H](C)C(=O)N[C@@H](CC(N)=O)C(N)=O)NC(=O)[C@H](C(C)C)NC(=O)[C@H](CCCNC(=N)N)NC1=O` the EC50 was 1360 nM (bactericidal activity; ATCC 25922; 24 h).
`CC(C)Cc1ccc(C(C)C(=O)O)cc1` (centres unmarked): “SOS response induction” 14% (MG1655 RecA-GFP; 100 µM, 4 h).
`C[C@@H](O)[C@H]1C(=O)N2C(C(=O)O)=C(SCCN=CN)C[C@H]12`: “MIC fold increase” 8 fold (DH5a clone with KPC-137; baseline: empty vector strain).
For `CCCCCC(=O)N[C@@H](CCCNC(=N)N)C(=O)N[C@@H](CCCNC(=N)N)C(=O)N[C@@H](CCCNC(=N)N)C(=O)N[C@@H](CCCNC(=N)N)C(=O)N[C@H](C(=O)N[C@@H](CC(C)C)C(=O)N[C@H](C(=O)N[C@@H](CCCCN)C(=O)N[C@@H](CCCCN)C(=O)N[C@H](C(=O)N[C@@H](CC(C)C)C(=O)N[C@@H](CCCCN)C(=O)N[C@@H](CC(C)C)C(=O)N[C@@H](CCCCN)C(=O)N[C@@H](CO)C(=O)N[C@@H](CO)C(=O)N[C@@H](C)C(=O)N[C@@H](Cc1ccc(O)cc1)C(N)=O)C(C)C)[C@@H](C)CC)[C@@H](C)CC`, the FICI was 0.16 (checkerboard; unit not given, added: rifampicin; lower means synergy).
The MIC90 of `O=[N+]([O-])c1cc2c(ccc3cc(Br)ccc32)o1` is reported as > 32 µg/mL (REMA).
For `CC(C)C[C@H](NC(=O)[C@H](CCN)NC(=O)[C@H](CCN)NC(=O)[C@@H](Cc1ccccc1)NC(=O)[C@H](CC(C)C)NC(=O)[C@H](CCN)NC(=O)[C@H](CCN)NC(=O)[C@@H](CCN)NC(=O)[C@@H](N)CSCCOC(=O)c1ccc(C(C)(C)C)cc1)C(N)=O`, the MBC was 8 µM (≈ 9.59 µg/mL) (ATCC 10546; 24 h, 37 °C).
`CC[C@H](C)[C@H](NC(=O)[C@H](C)NC(=O)[C@H](CCCCN)NC(=O)[C@H](CCCNC(=N)N)NC(=O)[C@H](CCCCN)NC(=O)[C@H](CCCNC(=N)N)NC(=O)[C@H](CCCCN)NC(=O)[C@@H](N)CCCNC(=N)N)C(=O)N[C@@H](CO)C(=O)NCC(=O)N[C@@H](CO)C(=O)N[C@@H](CC(C)C)C(=O)N[C@H](C(=O)N[C@H](C(=O)N[C@@H](CC(C)C)C(=O)N[C@@H](Cc1ccccc1)C(=O)NCC(=O)N[C@@H](Cc1ccc(O)cc1)C(N)=O)[C@@H](C)O)C(C)C` has an FICI of 0.28 (checkerboard; unit not given, added: rifampicin; lower means synergy).

Excerpt of the above:
With `CC(C)[C@@H]1NC(=O)CNC(=O)[C@H](CC(N)=O)NC(=O)[C@H](CCCNC(=N)N)NC(=O)[C@H](Cc2ccc(O)cc2)NC(=O)[C@H](C(C)C)NC(=O)[C@@H](NC(=O)[C@@H](NC(=O)[C@H](CC(N)=O)NC(=O)[C@H](Cc2c[nH]c3ccccc23)NC(=O)[C@H](C)NC(=O)[C@H](Cc2ccccc2)NC(=O)CN)C(C)C)CSSC[C@@H](C(=O)N[C@@H](Cc2c[nH]cn2)C(=O)N[C@@H](CCCNC(=N)N)C(=O)N[C@@H](CCCNC(=N)N)C(=O)N[C@@H](C)C(=O)N[C@@H](CC(N)=O)C(N)=O)NC(=O)[C@H](C(C)C)NC(=O)[C@H](CCCNC(=N)N)NC1=O` the EC50 was 1360 nM (bactericidal activity; ATCC 25922; 24 h).
The MIC90 of `O=[N+]([O-])c1cc2c(ccc3cc(Br)ccc32)o1` is reported as > 32 µg/mL (REMA).
